Measured values from different studies.
Parts stem from different laboratories: compare values within a part only. Substitutions count along the parent as printed.

Set 1 — method: RNA Bind-n-Seq; molecule type: RNA; medium: in vitro; tested at: 200 nM; setting: whole 134-nt RNA, ends assumed; together with: 150 mM LiCl; baseline: input library; reading: higher = stronger binding; each molecule: 7-deaza-guanosine replaces G
Target: Ras GTPase-activating protein-binding protein 1, full length (G3BP1, Homo sapiens, UniProt Q13283)
Sequence of UniProt Q13283 (whole entry, looked up): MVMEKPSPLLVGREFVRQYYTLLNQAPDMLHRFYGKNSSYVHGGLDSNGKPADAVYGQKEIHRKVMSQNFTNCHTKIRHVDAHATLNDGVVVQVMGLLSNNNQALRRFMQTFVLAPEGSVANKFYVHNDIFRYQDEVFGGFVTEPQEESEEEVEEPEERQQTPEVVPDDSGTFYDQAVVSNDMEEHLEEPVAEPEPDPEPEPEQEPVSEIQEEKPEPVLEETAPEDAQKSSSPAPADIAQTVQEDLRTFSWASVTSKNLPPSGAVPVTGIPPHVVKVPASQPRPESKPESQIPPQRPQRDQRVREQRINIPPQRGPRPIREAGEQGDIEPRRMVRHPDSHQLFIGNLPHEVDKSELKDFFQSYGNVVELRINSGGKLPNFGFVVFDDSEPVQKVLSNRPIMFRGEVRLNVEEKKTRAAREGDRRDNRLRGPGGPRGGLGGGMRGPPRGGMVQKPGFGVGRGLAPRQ
Constant ends, left off below: GGGAGUUCUACAGUCCGACGAUC … UGGAAUUCUCGGGUGUCAAGG
Sequence	log2 enrichment
UUGCUAACUUCAAGAUAGAGCCUCCUGGACUUUUCCGUGGCCGCGGCAACCACCCCAAGAUGGGCAUGCUGAAGAGACGAAUCAUGCCCG	0.42
UGGCCCUGGUGGCAUGCGGGGAGGAAGAGGUGGCCUCAUGGAUCGUGGUGCUCCCGGUGGAAUGUUCAGAGGUGGCCGUGGUGGAGACAG	1.49
GCAGGAAGUAAAAACAAAUGGAAAUGCUUCGGAUAGUGGCAGGGGUGGGAGUUGCUAAGGAAAGGGUGGGAUGGGAGUGGGUAAAGAGUU	0.17
ACCAUGCAGGUGGGCAUCUUUGGGAAGUGGAGCAAGGGGGGGAUAGGGAGGGGGGUAACACUUUGGGAACAGGUGGUCCCAGGUCGUUUC	0.369
AGUCCUGUGCUACACAUCGUAUGUACCGAAUCGGGGUUUGGGGUUUGGGGAAAGGGGAAAGUAUUAUGUUACGCCGUUCGGAUCUGCACU	-0.228
CAAAAUACCAAGGGAUUUAUAUGAGGAUGAGUUGGUGCCCCUUUUUGAGAAGGCCGGACCCAUUUGGGAUCUACGUCUUAUGAUGGAUCC	1.18
GCAGGAAGUAAAAACAAAUGGAAAUGCUUCGGAUAGUGGCAGGGGUGGGGGUUGCUAAGGAAAGGGUGGGAUGGGACUGGGUAAAGAGUU	-0.214
CCUCAAGUCCUGUGCUACACAUCGUAUGUACCGAAUCGGGGUGGUGGGUGGGGAAAGUAUUAUGUUACGCCGUUCGGAUCUGCACUUCCA	-0.311
UCAAGUCCUGUGCUACACAUCGUAUGUACCGAAUCGGUUUGGGUUUGGUUUGGGGAAAGUAUUAUGUUACGCCGUUCGGAUCUGCACUUC	-0.458
UCCCGGGCGCUAGCCCACCUCCCACCCGCCUCUUGGCUCCUCUCCUCUAGGCCGUCGCUUUCGGGUUCUCUCAUCGCUUCGUCGUUCGCC	0.629
UAACUUUUGAGGAGGAUCUGAUGGAUAUGGCAGUGGACGUGGAUUUGGGGAUGGCUAUAAUGGGUAUGGAGGAGGACCUGGAGGUGGCAA	0.0149

Set 2 — method: protein-binding microarray; molecule type: double-stranded DNA, one strand shown; medium: in vitro; tested at: 2540 nM top; setting: 60-bp whole probe; together with: salmon DNA 0.4 mg/ml; baseline: random background probes; reading: higher = stronger binding; constant ends, left off below: GCCTAGCAC … GTCTTGATTCGCTTGACGCTGCTG
Target: Interferon regulatory factor 3, full length, phosphomimetic (IRF3, Homo sapiens, UniProt Q14653, residues 1-427, S386D/S396D/S398D/S402D/T404D/S405D)
Sequence of UniProt Q14653 (whole entry, unmodified, looked up): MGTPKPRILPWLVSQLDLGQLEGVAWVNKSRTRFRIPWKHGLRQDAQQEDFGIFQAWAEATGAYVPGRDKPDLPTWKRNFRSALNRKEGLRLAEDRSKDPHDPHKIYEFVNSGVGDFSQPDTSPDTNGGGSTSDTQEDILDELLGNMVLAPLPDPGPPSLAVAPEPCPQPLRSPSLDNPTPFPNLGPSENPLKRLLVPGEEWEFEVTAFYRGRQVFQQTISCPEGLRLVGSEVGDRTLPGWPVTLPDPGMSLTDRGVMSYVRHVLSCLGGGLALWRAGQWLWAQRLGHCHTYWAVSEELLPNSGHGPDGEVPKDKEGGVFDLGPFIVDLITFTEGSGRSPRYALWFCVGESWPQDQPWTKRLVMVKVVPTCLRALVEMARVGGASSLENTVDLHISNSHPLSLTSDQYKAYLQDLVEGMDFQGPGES
Sequence	fitted relative affinity [z-score]
GACGGACTGGGGTTACGGGACGTGCTA	-0.712
TTAGGTTTCGGACTGGGTCAGTGCTAG	4.06
CAAACACTAATTTTCAATTCGTGCTAG	2.02
TTAGGAATGGGTTTCGGTTAGTGCTAG	3.33
TTAAGTATCGGGTATCGGTTAGTGCTA	2.17
GACGGTTTCATTTCCCTGACGTGCTAG	5.38
TTGACTCTTTCTGTCAGTTTGTGCTAG	0.98
TTAGGTCTCAGTATCGATTAGTGCTAG	1.45
GACGGACTGCTTATCGTGACGTGCTAG	-0.358
TCATTTTTTTATTTATAACTGTGCTAG	1.54
AGTTGTTTTAAATTCTAATTGTGCTAG	1.33
TCAATGTTCACTATTTAACTGTGCTAG	0.612
GACGGACTGGGGTATCGGCACGTGCTA	-0.893
GACGGTATCGGTATGGGGACGTGCTAG	3.17
GACGGACTGGACTTTCGGGCCGTGCTA	-0.52

Set 3 — target: CCND2, cyclin fold, Cln2 fusion (human); method: yeast growth competition, sequencing; medium: yeast; setting: weak parent motif; baseline: not given; reading: higher = stronger binding
Starting sequence: RBL2 docking peptide (human); STTRRRLFVENDS; partner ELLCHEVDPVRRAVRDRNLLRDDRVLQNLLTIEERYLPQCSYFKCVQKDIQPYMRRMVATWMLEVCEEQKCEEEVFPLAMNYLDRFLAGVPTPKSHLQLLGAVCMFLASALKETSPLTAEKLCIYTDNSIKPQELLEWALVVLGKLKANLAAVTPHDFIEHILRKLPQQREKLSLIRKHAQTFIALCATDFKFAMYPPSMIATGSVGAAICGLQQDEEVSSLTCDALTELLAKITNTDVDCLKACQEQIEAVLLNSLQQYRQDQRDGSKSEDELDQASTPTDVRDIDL
Variant	normalised enrichment score
L7T	-0.0362
T3S	-0.0363
S1V	-0.0592
S13E	0.36
D12F	0.149
R6C	0.689
V9I	-0.281
R5M	0.0945
R4Y	0.738
V9K	0.186

Mixed results
Substance	target	test	system	setting	how to read	endpoint	result
PhoQ, residues 284 288 289 292 302 303 SCCLKL	PhoP, residues 12 14 15 18 19 YHFSH (Escherichia coli, UniProt P23836)	Sort-seq, measured: YFP reporter	E. coli	PhoQ-PhoP variant library, together with: 10 µM Mg2+	baseline: high Mg2+ state, higher = stronger signaling	fold induction	1.14

Excerpt of the above (set 2):
Sequence	fitted relative affinity [z-score]
GACGGTATCGGTATGGGGACGTGCTAG	3.17
TCAATGTTCACTATTTAACTGTGCTAG	0.612
